Assay results of several laboratories.
Organism: Escherichia coli

CC[C@H](C)[C@H](NC(=O)[C@H](CCCCN)NC(=O)[C@H](Cc1c[nH]c2ccccc12)NC(=O)[C@H](Cc1c[nH]c2ccccc12)NC(=O)[C@H](CCCCN)NC(=O)[C@H](CCCCN)NC(=O)[C@H](CCCCN)NC(=O)[C@H](Cc1c[nH]c2ccccc12)NC(=O)[C@H](CCCCN)NC(=O)[C@H](CCCCN)NC(=O)[C@H](Cc1c[nH]c2ccccc12)NC(=O)[C@H](CCCCN)NC(=O)[C@H](CCCCN)NC(=O)[C@@H](NC(=O)[C@@H](NC(=O)[C@H](CCCCN)NC(=O)[C@@H](N)CCCNC(=N)N)[C@@H](C)CC)[C@@H](C)CC)C(=O)N[C@@H](Cc1c[nH]c2ccccc12)C(=O)N[C@@H](Cc1c[nH]c2ccccc12)C(=O)N[C@@H](CCCCN)C(N)=O  MIC (broth microdilution; 25922): 1.25 µg/mL
CCCCCCCC(=O)N[C@@H](CCN)C(=O)N[C@H](C(=O)N[C@@H](CCN)C(=O)N[C@H]1CCNC(=O)[C@H]([C@@H](C)O)NC(=O)[C@H](CCN)NC(=O)[C@H](CCN)NC(=O)[C@H](Cc2ccccc2F)NC(=O)[C@@H](CC(C)C)NC(=O)[C@H](CCN)NC1=O)[C@@H](C)O  MIC (broth microdilution; ATCC 25922, colistin-susceptible): 0.06 to 0.125 µg/mL
CC[C@H](C)[C@H](NC(=O)[C@H](CCCNC(=N)N)NC(=O)[C@H](CO)NC(=O)[C@H](Cc1ccc(O)cc1)NC(=O)[C@@H](NC(=O)[C@@H](NC(=O)[C@H](C)NC(=O)CNC(=O)[C@H](CCCCN)NC(=O)[C@H](CCCCN)NC(=O)CCNC(=O)CCCCCNC(=O)[C@H](CCCNC(=N)N)NC(=O)CCCCCNC(=O)[C@H](CCCNC(=N)N)NC(=O)[C@H](CCCNC(=N)N)NC(=O)CCCCCNC(=O)[C@H](CCCNC(=N)N)NC(=O)[C@H](CCCNC(=N)N)NC(=O)CCCCCNC(=O)[C@H](CCCNC(=N)N)NC(=O)[C@H](CCCNC(=N)N)NC(=O)CCCCCNC(=O)[C@@H](N)CCCNC(=N)N)C(C)C)[C@@H](C)O)C(=O)N[C@@H](CO)C(=O)NCC(=O)N[C@@H](CCC(N)=O)C(=O)N[C@@H](Cc1ccc(O)cc1)C(=O)N[C@@H](CCCCN)C(=O)O  MIC (ATCC 25922, Mueller-Hinton broth; with: NH4Cl 6 µM): 6 µM
CC[C@H](C)[C@H](NC(=O)[C@@H](CCCNC(=N)N)NC(=O)[C@H](CCCNC(=N)N)NC(=O)CNC(=O)[C@H](Cc1c[nH]c2ccccc12)NC(=O)[C@H](CCCNC(=N)N)NC(=O)[C@@H]1CCCN1C(=O)[C@H](CCCNC(=N)N)NC(=O)[C@@H]1CCCN1C(=O)[C@H](CC(C)C)NC(=O)[C@H](Cc1ccc(O)cc1)NC(=O)[C@@H]1CCCN1C(=O)[C@@H]1CCCN1C(=O)[C@H](CCCCN)NC(=O)[C@H](CC(=O)O)NC(=O)[C@@H](N)C(C)C)C(=O)N[C@@H](Cc1ccc(O)cc1)C(=O)N[C@@H](CC(N)=O)C(=O)N[C@H](CCCNC(=N)N)C(N)=O  MIC (broth microdilution; MC4100; 18 h, 37 °C, 25% MHB2): 4 µg/mL
CC1(C)C(NC(=O)C(=NOC2(C(=O)O)CC2)c2csc(N)n2)C(=O)N1OS(=O)(=O)O (centres unmarked)  MIC (agar dilution; CDC 1001728, NDM-1): 0.25 µg/mL
CC(=O)N[C@@H](CC(C)C)C(=O)N[C@H]1CSSC[C@@H](C(=O)N2CCC[C@H]2C(N)=O)NC(=O)[C@H]([C@@H](C)O)NC(=O)[C@H](C(C)C)NC(=O)[C@H]([C@@H](C)O)NC(=O)CNC(=O)[C@H](CC(C)C)NC(=O)[C@H](Cc2ccccc2)NC(=O)[C@H](Cc2ccc(O)cc2)NC(=O)[C@H](CC(C)C)NC(=O)[C@H](CCCCN)NC(=O)[C@H](Cc2ccccc2)NC(=O)[C@H](CCCNC(=N)N)NC(=O)[C@H](CCC(N)=O)NC(=O)[C@H](CC(C)C)NC(=O)[C@H](CCCCN)NC(=O)[C@@H]2CCCN2C(=O)[C@H](CCCCN)NC(=O)[C@H](C(C)C)NC(=O)[C@H](CCCCN)NC(=O)[C@H](Cc2ccc(O)cc2)NC(=O)[C@H]([C@@H](C)O)NC1=O  MIC (broth dilution; laboratory strain; 24 h): 1.25 to 2.5 µM
CC[C@H](C)[C@H](NC(=O)[C@H](C)NC(=O)[C@@H](NC(=O)[C@H](CC(=O)O)NC(=O)[C@H](CCCCN)NC(=O)[C@H](CO)NC(=O)[C@@H](NC(=O)[C@H](CC(N)=O)NC(=O)[C@H](C)NC(=O)[C@@H](NC(=O)[C@H](CCC(=O)O)NC(=O)[C@H](CCCCN)NC(=O)[C@@H](NC(=O)[C@@H](NC(=O)[C@H](Cc1c[nH]cn1)NC(=O)[C@H](CCCCN)NC(=O)[C@@H](NC(=O)[C@H](CCCCN)NC(=O)[C@H](CCCCN)NC(=O)[C@@H](NC(=O)[C@H](CC(C)C)NC(=O)[C@H](CCCCN)NC(=O)[C@H](CC(N)=O)NC(=O)[C@H](Cc1ccccc1)NC(=O)[C@H](CCCNC(=N)N)NC(=O)[C@H](CCCCN)NC(=O)[C@H](CCCNC(=N)N)NC(=O)[C@H](Cc1ccccc1)NC(=O)CN)C(C)C)C(C)C)[C@@H](C)O)[C@@H](C)CC)[C@@H](C)O)C(C)C)C(C)C)C(=O)N[C@H](C(=O)N[C@@H](C)C(=O)NCC(=O)N[C@@H](CO)C(=O)NCC(=O)N[C@H](C(=O)N[C@@H](C)C(=O)N[C@H](C(=O)NCC(=O)N[C@@H](C)C(=O)N[C@@H](C)C(=O)N[C@@H](CCSC)C(N)=O)C(C)C)C(C)C)C(C)C  MIC (ATCC 25922, CAMHB with 10% mouse serum; 150 mM NaCl): 0.5 µg/mL
CSCC[C@H](NC=O)C(=O)N[C@@H](CCCNC(=N)N)C(=O)N[C@H](C(=O)NCC(=O)N[C@@H](CC(N)=O)C(=O)N[C@@H](C)C(=O)N[C@@H](CC(N)=O)C(=O)NCC(=O)N1CCN(c2ccc(N3C[C@H](CNC(C)=O)OC3=O)cc2F)CC1)[C@@H](C)O  MIC (broth dilution; K12 MG1655 efflux knock-out): ~4.4 µM
CC(C)[C@H](NC(=O)CNC(=O)CNC(=O)[C@H](Cc1ccc(O)cc1)NC(=O)[C@H](CS)NC(=O)[C@@H](NC(=O)[C@H](Cc1c[nH]c2ccccc12)NC(=O)[C@H](Cc1ccccc1)NC(=O)[C@H](CS)NC(=O)[C@H](Cc1c[nH]c2ccccc12)NC(=O)[C@@H](N)CCCNC(=N)N)C(C)C)C(=O)N[C@@H](CS)C(=O)N[C@@H](Cc1ccc(O)cc1)C(=O)N[C@@H](CCCNC(=N)N)C(=O)N[C@@H](CCCNC(=N)N)C(=O)N[C@@H](CS)C(=O)N[C@@H](CCCNC(=N)N)C(=O)O  MIC (broth microdilution; K88, Mueller-Hinton broth; 37 °C): 2.2 µg/mL
CNC(C)C1CCC(N)C(OC2C(N)CC(N)C(OC3OCC(C)(O)C(NC)C3O)C2O)O1 (centres unmarked)  MIC (microbial growth, broth dilution; K88): < 1 µM
CC(C)C[C@H](NC(=O)[C@@H](NC(=O)[C@H](CCCNC(=N)N)NC(=O)[C@H](CCC(N)=O)NC(=O)[C@H](Cc1ccccc1)NC(=O)[C@H](Cc1ccc(O)cc1)NC(=O)[C@H](CC(N)=O)NC(=O)[C@H](Cc1c[nH]c2ccccc12)NC(=O)[C@@H](NC(=O)[C@H](CCCNC(=N)N)NC(=O)[C@H](CCCCN)NC(=O)[C@@H](N)Cc1ccccc1)C(C)C)C(C)C)C(=O)N[C@H](C(=O)N[C@@H](CCCCN)C(=O)N[C@@H](CCCCN)C(=O)N[C@@H](Cc1ccc(O)cc1)C(N)=O)C(C)C  MIC (broth dilution; ATCC 25922, Mueller-Hinton broth; 24 h, 37 °C): 50 µM
CC[C@H](C)[C@H](NC(=O)[C@@H](CCCNC(=N)N)NC(=O)[C@H](CCCNC(=N)N)NC(=O)[C@@H]1CCCN1C(=O)[C@@H]1CCCN1C(=O)[C@H](CCCNC(=N)N)NC(=O)[C@@H]1CCCN1C(=O)[C@H](CCCNC(=N)N)NC(=O)[C@@H]1CCCN1C(=O)[C@H](CC(C)C)NC(=O)[C@H](Cc1ccc(O)cc1)NC(=O)[C@H](CCCNC(=N)N)NC(=O)[C@@H]1CCCN1C(=O)[C@H](CCCCN)NC(=O)[C@H](CC(=O)O)NC(=O)[C@@H](N)C(C)C)C(=O)N[C@@H](Cc1ccc(O)cc1)C(=O)N[C@@H](CC(N)=O)C(=O)N[C@H](CCCNC(=N)N)C(N)=O  MIC (broth microdilution; ATCC 25922; 18 h, 37 °C, 25% MHB2): 16 µg/mL
CC1(C)[C@H](NC(=O)/C(=N\OC2(C(=O)O)CC2)c2nsc(N)n2)C(=O)N1OS(=O)(=O)O  MIC (agar dilution; 08-85, mcr-1): 4 µg/mL
CC(C)C[C@H](NC(=O)[C@@H](NC(=O)[C@H](CCCCN)NC(=O)[C@H](CCCCN)NC(=O)[C@H](CC(C)C)NC(=O)[C@H](Cc1c[nH]c2ccccc12)NC(=O)[C@H](CCCCN)NC(=O)[C@H](Cc1c[nH]c2ccccc12)NC(=O)[C@H](CC(C)C)NC(=O)[C@H](CCCCN)NC(=O)[C@H](CCCCN)NC(=O)[C@@H](N)C(C)C)C(C)C)C(N)=O  MIC (24 h, 37 °C, Mueller-Hinton broth, NH4Cl 6 µM): 16 µM
CC[C@H](C)[C@H](NC(=O)[C@H](Cc1c[nH]c2ccccc12)NC(=O)[C@H](CCCNC(=N)N)NC(=O)[C@@H](N)CCCNC(=N)N)C(=O)N[C@@H](CCCNC(=N)N)C(=O)N[C@@H](Cc1c[nH]c2ccccc12)C(=O)N[C@H](C(=O)N[C@H](C(N)=O)[C@@H](C)O)[C@@H](C)CC  MIC (25922): 16 µg/mL
CC1(C)S[C@@H]2[C@H](NC(=O)[C@H](NC(=O)C3=C(O)C(c4ccccc4F)NC3=O)c3ccccc3)C(=O)N2[C@H]1C(=O)O (some centres unmarked)  MIC (broth microdilution; Keio mutant JW5195-1; 18 h): 50 µg/mL
CC[C@H](C)[C@H](NC(=O)[C@@H](CCCNC(=N)N)NC(=O)[C@H](CCCNC(=N)N)NC(=O)[C@@H]1CCCN1C(=O)[C@@H]1CCCN1C(=O)[C@H](CCCNC(=N)N)NC(=O)[C@@H]1CCCN1C(=O)[C@H](CCCNC(=N)N)NC(=O)[C@@H]1CCCN1C(=O)[C@H](Cc1ccccc1)NC(=O)[C@H](Cc1ccc(O)cc1)NC(=O)[C@@H]1CCCN1C(=O)[C@@H]1CCCN1C(=O)[C@H](CCCCN)NC(=O)[C@H](CC(=O)O)NC(=O)[C@@H](N)C(C)C)C(=O)N[C@@H](Cc1ccc(O)cc1)C(=O)N[C@@H](CC(N)=O)C(=O)N[C@H](CCCNC(=N)N)C(N)=O  MIC (broth microdilution; ATCC 25922; 18 h, 37 °C, 25% MHB2): 64 µg/mL
COc1c(NC(=O)c2ccc(NC(=O)c3ccc(NC(=O)[C@H](CC(N)=O)NC(=O)c4ccc(NC(=O)[C@@H](N)Cc5ccccc5)cc4)cc3)c(OC)c2O)ccc(C(=O)O)c1O  MIC (monooxygenase clone; 16 h, 37 °C): 8 µg/mL
CC[C@H](C)[C@H](NC(=O)[C@@H](NC(=O)[C@H](CCCCN)NC(=O)[C@H](CCCCN)NC(=O)[C@@H](NC(=O)[C@H](Cc1c[nH]c2ccccc12)NC(=O)[C@H](CCCCN)NC(=O)[C@H](Cc1c[nH]c2ccccc12)NC(=O)[C@H](CC(C)C)NC(=O)[C@H](CCCCN)NC(=O)[C@H](CCCCN)NC(=O)[C@@H](N)C(C)C)[C@@H](C)CC)C(C)C)C(N)=O  MIC (24 h, 37 °C, Mueller-Hinton broth, CaCl2 2.5 mM): 32 µM
CC[C@H](C)[C@H](NC(=O)[C@@H](CCCNC(=N)N)NC(=O)[C@H](CCCNC(=N)N)NC(=O)[C@@H]1CCCN1C(=O)[C@@H]1CCCN1C(=O)[C@H](CCCNC(=N)N)NC(=O)[C@@H]1CCCN1C(=O)[C@H](CCCNC(=N)N)NC(=O)[C@@H]1CCCN1C(=O)[C@H](CC(C)C)NC(=O)[C@H](Cc1cc(I)c(O)c(I)c1)NC(=O)[C@@H]1CCCN1C(=O)[C@@H]1CCCN1C(=O)[C@H](CCCCN)NC(=O)[C@H](CC(=O)O)NC(=O)[C@@H](N)C(C)C)C(=O)N[C@@H](Cc1ccc(O)cc1)C(=O)N[C@@H](CC(N)=O)C(=O)N[C@H](CCCNC(=N)N)C(N)=O  MIC (broth microdilution; MC4100; 18 h, 37 °C, 25% MHB2): 64 µg/mL

For quick reference, copied from above:
CC[C@H](C)[C@H](NC(=O)[C@@H](CCCNC(=N)N)NC(=O)[C@H](CCCNC(=N)N)NC(=O)[C@@H]1CCCN1C(=O)[C@@H]1CCCN1C(=O)[C@H](CCCNC(=N)N)NC(=O)[C@@H]1CCCN1C(=O)[C@H](CCCNC(=N)N)NC(=O)[C@@H]1CCCN1C(=O)[C@H](Cc1ccccc1)NC(=O)[C@H](Cc1ccc(O)cc1)NC(=O)[C@@H]1CCCN1C(=O)[C@@H]1CCCN1C(=O)[C@H](CCCCN)NC(=O)[C@H](CC(=O)O)NC(=O)[C@@H](N)C(C)C)C(=O)N[C@@H](Cc1ccc(O)cc1)C(=O)N[C@@H](CC(N)=O)C(=O)N[C@H](CCCNC(=N)N)C(N)=O  MIC (broth microdilution; ATCC 25922; 18 h, 37 °C, 25% MHB2): 64 µg/mL
